Published values of several laboratories.
Lines come from different studies, so protocols differ.
Target: B2 bradykinin receptor (BDKRB2, Homo sapiens, UniProt P30411)
UniProt P30411, sequence (whole entry, looked up): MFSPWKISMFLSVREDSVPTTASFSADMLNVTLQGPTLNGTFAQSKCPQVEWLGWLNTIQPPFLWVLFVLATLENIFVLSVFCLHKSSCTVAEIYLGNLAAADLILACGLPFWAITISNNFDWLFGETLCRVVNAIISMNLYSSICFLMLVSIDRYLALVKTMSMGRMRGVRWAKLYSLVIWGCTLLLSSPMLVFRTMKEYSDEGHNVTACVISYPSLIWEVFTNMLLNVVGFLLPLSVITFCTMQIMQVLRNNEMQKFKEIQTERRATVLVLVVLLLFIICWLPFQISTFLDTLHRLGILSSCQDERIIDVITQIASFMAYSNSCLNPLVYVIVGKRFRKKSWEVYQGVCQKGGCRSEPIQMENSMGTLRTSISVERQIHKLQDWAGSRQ

SMILES	test	conditions	inhibition
O=C1c2sc(-c3ccc(N4CCC(CO)CC4)nc3F)nc2CCN1c1cccnc1	ligand displacement, radioligand	1 µM	5%
C[Si](C)(C)C[C@@H](CN)CC(=O)O	ligand displacement, radioligand	75 µM	-1%
CCC(=O)N(C)c1ccc(Cl)c(Cl)c1	ligand displacement, radioligand	10 µM	< 10%
CO[C@@H](C)c1c(NC(=O)Nc2cnc(-n3nccn3)c(C(F)(F)F)c2)cnc2sc(C)nc12	ligand displacement, radioligand	10 µM	4.4%
Cn1ccc2cc(-n3c(=O)[nH]c4sc5c(c4c3=O)CCCC5)ccc21	cell-free assay, radioligand	10 µM	5%
Cc1[nH]nc2c1N=C(c1ccccc1Cl)c1cnc(N3CCOCC3)cc1N2	cell-free assay	10 µM	-1%
C[Si]1(C[C@H](CN)CC(=O)O)CCCC1	ligand displacement, radioligand	70 µM	-14%
COCC(=O)N1CCc2cc(-c3csc(NC(=O)c4cc(OC)cc(OC)c4)n3)ccc21	cell-free assay	10 µM	3%
